{"data": "Measurements pooled from the literature", "CYP2B6": "Cytochrome P450 2B6 (CYP2B6, Homo sapiens, UniProt P20813)", "note": "Each line is one published result; not all experiments were run side by side. ± gives the spread as reported."}
{"SMILES": "C[C@@H](NC(=O)[C@@H](CCC(N)=O)NC(=O)[C@@H](C)NC(=O)[C@@H](CCCCN)NC(=O)[C@@H](CCC(N)=O)NC(=O)[C@@H](C)NC(=O)[C@@H](CCCCN)NC(=O)[C@@H](CCC(N)=O)NC(=O)[C@@H](C)NC(=O)[C@@H](CCC(N)=O)NC(=O)[C@@H](CCCCN)NC(=O)[C@@H](C)NC(=O)[C@@H](CCC(N)=O)NC(=O)[C@@H](CCCCN)NC(=O)[C@@H](C)NC(=O)[C@@H](CCC(N)=O)NC(=O)[C@@H](C)NC(=O)[C@@H](CCCCN)NC(=O)[C@@H](CCC(N)=O)NC(=O)[C@@H](C)NC(=O)[C@@H](CCCCN)NC(=O)[C@@H](CO)NC(=O)[C@@H](Cc1ccc(O)cc1)NC(=O)CNC(=O)CNC(=O)CN)C(=O)N[C@H](CCCCN)C(=O)N[C@H](CCC(N)=O)C(=O)N[C@H](C)C(=O)N[C@H](CCCCN)C(=O)N[C@H](CCC(N)=O)C(=O)O", "assay": "binding, SPR two-state model", "test system": "rVλ6Wil fibrils", "conditions": "300 nM", "measurement": "kd1", "value": "0.052 s⁻¹"}
{"SMILES": "CC(C)C[C@H](NC(=O)[C@H](CCCNC(=N)N)NC(=O)[C@H](Cc1ccccc1)NC(=O)[C@H](Cc1ccccc1)NC(=O)[C@@H](NC(=O)[C@H](CO)NC(=O)[C@@H](CC(C)C)NC(=O)[C@H](CO)NC(=O)CNC(=O)[C@@H](N)CO)[C@@H](C)O)C(=O)N[C@@H](Cc1ccccc1)C(=O)N[C@@H](CC(N)=O)C(=O)N[C@@H](CCCNC(=N)N)C(=O)N[C@@H](CO)C(=O)N[C@@H](Cc1ccccc1)C(=O)N[C@H](C(=O)N[C@@H](CCC(N)=O)C(=O)N[C@@H](C)C(=O)O)[C@@H](C)O", "target or system": "uncharacterized protein (Streptococcus mutans serotype c, UniProt Q8DS94)", "test system": "Streptococcus mutans", "measurement": "EC50", "value": "0.0045 µM"}
{"SMILES": "NCCCC[C@H](NC(=O)CNC(=O)CNC(=O)[C@H](CCCCN)NC(=O)CNC(=O)CNC(=O)CNC(=O)[C@H](CCCCN)NC(=O)CNC(=O)CNC(=O)[C@H](CCCCN)NC(=O)CNC(=O)CNC(=O)CNC(=O)[C@H](CCCCN)NC(=O)CNC(=O)CNC(=O)[C@H](CCCCN)NC(=O)CNC(=O)CNC(=O)CNC(=O)[C@H](CCCCN)NC(=O)CNC(=O)CNC(=O)[C@H](CCCCN)NC(=O)[C@H](CO)NC(=O)[C@H](Cc1ccc(O)cc1)NC(=O)CNC(=O)CNC(=O)CN)C(=O)NCC(=O)O", "assay": "binding, SPR two-state model", "test system": "rVλ6Wil fibrils", "conditions": "300 nM", "measurement": "kd1", "value": "0.001 s⁻¹"}
{"SMILES": "CC(C)C[C@@H](CC(=O)NCc1cccc(Oc2ccccc2)c1)NC(=O)[C@H](CCCNC(=N)N)NC(=O)[C@@H](N)CCCNC(=N)N", "target or system": "Cyclin-A2, with CDK2 (CCNA2, Homo sapiens, UniProt P20248)", "assay": "kinase activity, inhibitor", "conditions": "added: GST-Rb substrate", "measurement": "IC50", "value": "> 100 µM"}
{"SMILES": "CC1=CC(C)=[N+]2C1=Cc1ccc(CCC(=O)NCCOCCOCCOCCOCC(=O)N[C@H](C(=O)N3C[C@H](O)C[C@H]3C(=O)NCc3ccc(-c4scnc4C)cc3)C(C)(C)C)n1[B-]2(F)F", "target or system": "von Hippel-Lindau disease tumor suppressor, with elongin B/C (VHL, Homo sapiens, UniProt P40337)", "assay": "binding, TR-FRET", "conditions": "120 min, added: BODIPY FL VH032", "measurement": "Kd", "value": "0.00304 µM"}
{"SMILES": "CC(=O)N[C@@H](Cc1c[nH]cn1)C(=O)N[C@@H](CCCNC(=N)N)C(=O)N[C@@H](CCCNC(=N)N)C(=O)N[C@@H](CCCNC(=N)N)C(=O)N[C@@H](CCCNC(=N)N)C(=O)N[C@@H](CCCNC(=N)N)C(=O)N[C@@H](CCCNC(=N)N)C(=O)N[C@@H](CCCNC(=N)N)C(=O)N[C@@H](CCCNC(=N)N)C(=O)N[C@@H](Cc1c[nH]cn1)C(N)=O", "target or system": "Albumin (ALB, Bos taurus, UniProt P02769)", "assay": "fluorescence quenching", "conditions": "added: site competitor ibuprofen", "measurement": "Kb", "value": "240000 M⁻¹"}
{"SMILES": "C[C@H](NC(=O)[C@H](CCC(N)=O)NC(=O)[C@H](CCCCN)NC(=O)[C@H](C)NC(=O)[C@@H]1CCCN1C(=O)[C@H](C)NC(=O)[C@H](CCCCN)NC(=O)[C@H](CCC(N)=O)NC(=O)[C@H](C)NC(=O)[C@H](CCCCN)NC(=O)[C@H](CCC(N)=O)NC(=O)[C@@H]1CCCN1C(=O)[C@H](CCC(N)=O)NC(=O)[C@H](CCCCN)NC(=O)[C@H](C)NC(=O)[C@H](CCC(N)=O)NC(=O)[C@H](CCCCN)NC(=O)[C@H](C)NC(=O)[C@@H]1CCCN1C(=O)[C@H](C)NC(=O)[C@H](CCCCN)NC(=O)[C@H](CCC(N)=O)NC(=O)[C@H](C)NC(=O)[C@H](CCCCN)NC(=O)[C@H](CO)NC(=O)[C@H](Cc1ccc(O)cc1)NC(=O)CNC(=O)CNC(=O)CN)C(=O)N[C@@H](CCCCN)C(=O)N[C@@H](CCC(N)=O)C(=O)O", "assay": "binding, SPR two-state model", "test system": "rVλ6Wil fibrils", "measurement": "Kd", "value": "0.071 µM"}
{"SMILES": "CSCC[C@H](NC(=O)[C@@H]1CSSC[C@H](NC(=O)[C@H](CCCCN)NC(=O)[C@H](Cc2ccc(O)cc2)NC(=O)CNC(=O)[C@@H](N)CC(C(=O)O)C(=O)O)C(=O)N[C@@H](C(C)C)C(=O)N[C@H](Cc2c[nH]c3ccccc23)C(=O)N[C@@H](CCCCN)C(=O)N[C@@H]([C@@H](C)O)C(=O)N1)C(=O)N1C[C@H](O)C[C@H]1C(=O)N[C@@H](C)C(=O)O", "target or system": "SSTR4 (Homo sapiens, UniProt P31391)", "assay": "β-arrestin recruitment, agonist", "measurement": "EC50", "value": "5.1 µM"}
{"SMILES": "CN1C(=O)[C@H](Cc2ccc(O)cc2)NC(=O)CNC(=O)[C@H](Cc2ccc(O)cc2)NC(=O)[C@H](CCC(=O)O)NC(=O)[C@H](Cc2ccc(O)cc2)N(C)C(=O)[C@H](Cc2ccc(O)cc2)N(C)C(=O)[C@H](CCC(N)=O)NC(=O)[C@H](Cc2c[nH]c3ccccc23)NC(=O)[C@H](Cc2ccc(O)cc2)NC(=O)[C@@H](Cc2ccc(O)cc2)NC(=O)CSC[C@@H](C(N)=O)NC(=O)[C@H](CCCCN)NC(=O)[C@@H]1Cc1ccc(O)cc1", "target or system": "2,3-bisphosphoglycerate-independent phosphoglycerate mutase (Helicobacter pylori, UniProt B5Z7X6)", "assay": "biochemical", "measurement": "AC50", "value": "1.45 µM"}
{"SMILES": "CCCCCn1cc(C(=O)c2cccc3ccccc23)c2ccccc21", "target or system": "CNR1 (Homo sapiens, UniProt P21554)", "assay": "G protein activation, agonist, BRET", "measurement": "EC50", "value": "0.0245 µM"}
{"SMILES": "CCCCCc1cc(O)c2c(c1)OC(C)(C)C1CCC(C)=CC21 (single isomer, unassigned; (-))", "target or system": "CYP2B6", "assay": "inhibitor", "test system": "HEK cell microsomes", "conditions": "30 min preincubation without NADPH", "measurement": "IC50", "value": "19 ± 5.1 µM"}
{"SMILES": "CCC[C@H](C(=O)c1ccccc1)N1CCCC1", "target or system": "SLC6A3 (Homo sapiens, UniProt Q01959, F76Y)", "assay": "transporter uptake, inhibitor, radiometric", "measurement": "Ki", "value": "2.19 µM"}
{"SMILES": "CCCCCc1cc(O)c2c(c1)OC(C)(C)C1CCC(CO)=CC21 (stereo not shown)", "target or system": "CYP2B6", "assay": "enzyme activity, inhibitor", "test system": "microsomes from HEK293 cells", "conditions": "pH 7.4, unbound, fu,inc corrected, added: bupropion", "measurement": "Ki", "value": "0.086 ± 0.066 µM"}
{"SMILES": "CC[C@H](C)[C@H](NC(=O)[C@H](Cc1c[nH]c2ccccc12)NC(=O)[C@H](CCCCN)NC(=O)[C@@H](NC(=O)[C@H](CC(C)C)NC(=O)[C@H](CCCCN)NC(=O)CNC(=O)[C@@H](NC(=O)[C@@H](NC(=O)[C@H](CO)NC(=O)[C@@H](NC(=O)[C@@H](NC(=O)[C@H](CCCCN)NC(=O)[C@H](CCC(N)=O)NC(=O)[C@H](C)NC(=O)[C@H](CCSC)NC=O)[C@@H](C)CC)[C@@H](C)CC)[C@@H](C)O)[C@@H](C)CC)C(C)C)C(=O)N[C@H](C(=O)N[C@@H](CCCCN)C(=O)N[C@H](C(=O)N[C@H](C(=O)N[C@@H](CC(N)=O)C(=O)N[C@@H](CCCCN)C(=O)N[C@@H](Cc1ccccc1)C(=O)N[C@H](C(=O)N[C@@H](CCCCN)C(=O)N[C@@H](CCCCN)C(=O)O)[C@@H](C)O)C(C)C)[C@@H](C)O)[C@@H](C)CC (racemic)", "assay": "membrane binding, stopped-flow FRET", "test system": "POPC vesicles", "conditions": "pH 7.5, room temperature", "measurement": "Kd", "value": "400 µM"}
{"SMILES": "CC(C)[C@H](N)C(=O)N[C@@H](Cc1ccc(O)cc1)C(=O)N[C@@H](CCCCN)C(=O)N[C@H](C(=O)N[C@@H](CCCCN)C(=O)N[C@H](C(=O)N[C@@H](CCCCN)C(=O)N[C@H](C(=O)N[C@@H](CCCCN)C(=O)N[C@H](C(=O)N[C@@H](CCCCN)C(=O)N[C@H](C(=O)N[C@@H](CCCCN)C(=O)N[C@H](C(=O)N[C@@H](CCCCN)C(=O)N[C@H](C(=O)N[C@@H](CCCCN)C(=O)N[C@H](C(=O)O)[C@@H](C)O)C(C)C)[C@@H](C)O)C(C)C)[C@@H](C)O)C(C)C)[C@@H](C)O)C(C)C", "assay": "binding, SPR two-state model", "test system": "rVλ6Wil fibrils", "measurement": "Kd", "value": "0.025 µM"}
{"SMILES": "CC[C@H](C)[C@H](NC(=O)[C@H](CCCCN)NC(=O)CNC(=O)[C@@H](NC(=O)[C@@H](NC(=O)[C@H](CC(N)=O)NC(=O)[C@H](CC(=O)O)NC(=O)[C@@H](N)CC(=O)O)C(C)C)[C@@H](C)CC)C(=O)N[C@@H](Cc1c[nH]c2ccccc12)C(=O)N[C@@H](CO)C(=O)N[C@@H](CCCCN)C(=O)N[C@@H](CC(C)C)C(=O)N[C@H](C(=O)N[C@H](C(=O)N[C@H](C(=O)N[C@H](C(=O)N[C@H](C(=O)N[C@@H](CCCCN)C(=O)N[C@H](C(=O)N[C@@H](Cc1ccccc1)C(=O)N[C@H](C(=O)N[C@@H](CCCCN)C(=O)O)[C@@H](C)O)[C@@H](C)CC)[C@@H](C)O)[C@@H](C)CC)C(C)C)[C@@H](C)O)[C@@H](C)CC", "assay": "lipid vesicle binding", "test system": "POPC vesicles", "conditions": "pH 7.5", "measurement": "Kd", "value": "42 µM"}
{"note": "For quick reference, copied from above:"}
{"SMILES": "CC[C@H](C)[C@H](NC(=O)[C@H](Cc1c[nH]c2ccccc12)NC(=O)[C@H](CCCCN)NC(=O)[C@@H](NC(=O)[C@H](CC(C)C)NC(=O)[C@H](CCCCN)NC(=O)CNC(=O)[C@@H](NC(=O)[C@@H](NC(=O)[C@H](CO)NC(=O)[C@@H](NC(=O)[C@@H](NC(=O)[C@H](CCCCN)NC(=O)[C@H](CCC(N)=O)NC(=O)[C@H](C)NC(=O)[C@H](CCSC)NC=O)[C@@H](C)CC)[C@@H](C)CC)[C@@H](C)O)[C@@H](C)CC)C(C)C)C(=O)N[C@H](C(=O)N[C@@H](CCCCN)C(=O)N[C@H](C(=O)N[C@H](C(=O)N[C@@H](CC(N)=O)C(=O)N[C@@H](CCCCN)C(=O)N[C@@H](Cc1ccccc1)C(=O)N[C@H](C(=O)N[C@@H](CCCCN)C(=O)N[C@@H](CCCCN)C(=O)O)[C@@H](C)O)C(C)C)[C@@H](C)O)[C@@H](C)CC (racemic)", "assay": "membrane binding, stopped-flow FRET", "test system": "POPC vesicles", "conditions": "pH 7.5, room temperature", "measurement": "Kd", "value": "400 µM"}
